# Measured values gathered from unrelated publications.
# A part holds a random share of what one study measured.

# Set 1 — technique: RNA Bind-n-Seq; form: RNA; sample: in vitro; concentration: not given; setting: RNA with constant flanks, ends assumed; relative to: input RNA pool; direction: higher = stronger binding
# Target: RING finger protein unkempt homolog, zinc fingers 1-6, GST-SBP tag (UNK, Homo sapiens, UniProt Q9C0B0, residues 30-357)
# UniProt Q9C0B0, sequence (30-357, looked up): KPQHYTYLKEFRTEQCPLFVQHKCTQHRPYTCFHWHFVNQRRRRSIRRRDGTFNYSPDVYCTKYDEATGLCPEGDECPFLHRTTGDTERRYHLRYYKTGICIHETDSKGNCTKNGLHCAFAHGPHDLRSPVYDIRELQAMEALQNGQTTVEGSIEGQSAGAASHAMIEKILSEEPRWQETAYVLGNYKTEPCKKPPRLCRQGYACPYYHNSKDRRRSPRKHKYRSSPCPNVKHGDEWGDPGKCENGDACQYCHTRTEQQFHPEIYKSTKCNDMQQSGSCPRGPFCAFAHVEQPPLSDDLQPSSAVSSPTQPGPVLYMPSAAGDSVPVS
# Shared flanks, not repeated: GGGAGUUCUACAGUCCGACGAUC … CAACAGAGGAUUGAGCAUCA
Strand,bound/input enrichment
AAGCCUUAAGCACAAUUAAUUAAAAGUGAAACGUAAUUGUACAAGCAGUUAAUCACCCACCACCGGGCAUGAUUAACAAAGCAACCUUUCCCUUCCCCCGAGUGAUUUUGCGAAACCCCC,0.314 ratio
UGUAGUUCUGAAUACACAGGUUUUGUGUGUAUUUACUCUAUGUAUUAAAUUAUUAUUGCCCUCCGUUUAAAGUAAGGAUUACAAUUGGAUUUAAGUAGAUCACUGAAUGUUAUUGUUUAU,1.7 ratio
UUGUUGAAGAACCAGCUGUCUGAUCCUGAUAUAAAGGAUGACCAGAUCAUUAACUGGCUACCCGAAUUUCGUUCCUCUGUCAUGUACUUGACAAAAGACUUUGAGCAACUUAUAAACAUC,0.105 ratio
CAGCACUGCCUCUCUGUUUGGGGAGAUGUAAUGCUGGAAGAUCUUAAGGACUACAUACAUUCCCGAGAUGACAGUGUUGUUCAAAGACAGCCUAGUAAGUAAUUGGUAGAAAUGCCCUUA,0.128 ratio
AUGCUCUUAGAAGCUGAAAAUGACAAAGAGGUCGAAAUUCUUAAAGACAUCCGAGCACAUUUCCGCGCCAUGGUUGCCAACUUGAUCCAGUGUGUUCCAGUUCAUCACAGAAGAUUUCUC,0.141 ratio
CACCGGAGGCAUUUUCCCAACUGUCCAUUUUUGGAAAAUUCUCUAGAAACUCUGAGGUUCCGCAUUUCAAAUCUGAGCAUGCAGACACAUGCAGCUCGAAUGAGAACAUUUAUGUACUGG,0.0885 ratio
CCUGCUCCCAAAUCAUGGGCCAGUAACAAGCAAGGUGGGCAAGGAGAUGGAAUCCAAGUGAACCGUCAAUUUCAGCAGGAAUUUCCCAGUCUGCAGGCAGCUGGAGAUCAGGAAAAAAAA,0.113 ratio
AUCCUUCAGUGUUUUUUGUCCAUUAUCUGGGUCUUUUGGGCUUUAUCUAUUUUGGCUUCGAUCCGGAAACCCACGAAUCAGGUAGAAACCCCCGGAUGGCUGCCAUAGUUCCAGUUUUAA,0.526 ratio

# Set 2 — technique: protein-binding microarray; form: double-stranded DNA, one strand shown; sample: in vitro; concentration: not given; direction: higher = stronger binding
# Target: Max-binding protein MNT, bHLH-zipper, MAX partner unstated (MNT, Homo sapiens, UniProt Q99583, residues 220-300)
# Setting: k-mer, scored over probes, only values ≥0.25
# Target sequence (chain): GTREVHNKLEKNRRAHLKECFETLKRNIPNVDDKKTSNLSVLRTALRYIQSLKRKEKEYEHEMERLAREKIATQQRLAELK
Strand,E-score
ATGCTCAC,0.284
AAACACGC,0.397
GCGTGGGA,0.406
CGCGTGGA,0.455
ACCGCACG,0.295
CATGCGGA,0.426
AGCACGAG,0.398
ACGCTACA,0.251

# Set 3 — read-out: enzyme activity; action: inhibitor; concentration: 0.5 µM; relative to: control
# Target: NT-3 growth factor receptor (NTRK3, Homo sapiens, UniProt Q16288)
# UniProt Q16288, sequence (whole entry, looked up): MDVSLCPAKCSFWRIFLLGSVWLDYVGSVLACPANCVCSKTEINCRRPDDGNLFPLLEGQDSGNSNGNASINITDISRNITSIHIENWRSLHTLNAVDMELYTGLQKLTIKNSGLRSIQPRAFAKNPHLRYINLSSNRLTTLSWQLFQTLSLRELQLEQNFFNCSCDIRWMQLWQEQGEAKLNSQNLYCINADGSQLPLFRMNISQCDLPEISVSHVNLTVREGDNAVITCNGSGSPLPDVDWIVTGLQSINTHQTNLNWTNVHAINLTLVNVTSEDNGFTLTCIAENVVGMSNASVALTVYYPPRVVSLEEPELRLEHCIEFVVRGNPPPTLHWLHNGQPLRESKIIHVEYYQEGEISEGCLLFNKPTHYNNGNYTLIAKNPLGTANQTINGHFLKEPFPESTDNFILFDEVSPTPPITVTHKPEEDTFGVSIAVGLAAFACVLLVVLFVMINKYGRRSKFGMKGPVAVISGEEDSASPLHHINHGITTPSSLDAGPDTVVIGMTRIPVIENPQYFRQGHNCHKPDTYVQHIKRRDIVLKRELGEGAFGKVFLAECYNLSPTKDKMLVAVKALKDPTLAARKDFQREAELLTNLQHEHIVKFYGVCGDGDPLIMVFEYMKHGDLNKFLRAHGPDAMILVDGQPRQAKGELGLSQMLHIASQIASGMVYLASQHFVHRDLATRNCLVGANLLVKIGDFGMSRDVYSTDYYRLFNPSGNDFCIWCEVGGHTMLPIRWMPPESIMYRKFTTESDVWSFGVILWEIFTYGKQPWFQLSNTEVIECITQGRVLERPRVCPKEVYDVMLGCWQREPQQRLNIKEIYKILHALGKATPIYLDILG
SMILES,remaining activity [%]
OCC(O)CCON=C1C(c2c(O)[nH]c3ccccc23)=Nc2ccccc21 (stereo not drawn),1.01
Cc1nc(-c2ccccc2)c(-c2ccncc2)o1,105
Cc1ccc(NC(=O)c2ccc(CN3CCN(C)CC3)cc2)cc1Nc1nc(-c2cccnc2)cs1,94.1
CN(C)c1ccc(C=C2C(=O)Nc3ccccc32)cc1,36.3
O=C(Nc1cccc(Nc2cc(Nc3cccc(C(F)(F)F)c3)ncn2)c1)C1CC1,95.1
O=C1NC(=O)C(c2cn(CCCO)c3ncccc23)=C1c1cnccn1,79.7
Nc1ncnc2n[nH]c(Nc3ccc(F)cc3)c12,81.5
CC(C)[C@H](CO)Nc1nc(Nc2cc(N)cc(Cl)c2)c2ncn(C(C)C)c2n1,4.42
O=C(CCCc1ccc(-c2ccccc2F)cc1)Nc1ccc(O)cc1,96.3
O=S(=O)(c1cccc2cnccc12)N1CCCNCC1,85.5
COc1ccc(C(=O)Nc2sc3c(c2C(N)=O)CCCC3)cc1OC,57.8
COc1ccc(OC)c2c(=S)c3ccccc3[nH]c12,93.6

# Set 4 — read-out: ligand displacement; technique: radioligand; concentration: 10 µM
# Target: 5-hydroxytryptamine receptor 1B (HTR1B, Homo sapiens, UniProt P28222)
# UniProt P28222, sequence (whole entry, looked up): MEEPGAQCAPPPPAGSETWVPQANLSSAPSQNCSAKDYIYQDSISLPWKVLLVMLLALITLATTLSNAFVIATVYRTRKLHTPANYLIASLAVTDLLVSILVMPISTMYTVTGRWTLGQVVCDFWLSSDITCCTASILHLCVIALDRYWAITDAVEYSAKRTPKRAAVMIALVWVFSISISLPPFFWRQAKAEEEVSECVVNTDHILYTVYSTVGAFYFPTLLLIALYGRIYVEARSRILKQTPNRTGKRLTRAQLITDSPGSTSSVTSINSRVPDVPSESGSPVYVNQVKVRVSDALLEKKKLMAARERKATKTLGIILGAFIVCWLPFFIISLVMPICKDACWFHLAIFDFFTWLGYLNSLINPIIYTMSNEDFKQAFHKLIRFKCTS
SMILES,inhibition [%]
CC1=C(C#N)C(c2ccc3c(c2)c(NC(=O)c2ccccc2C)nn3C)C(C#N)=C(C)N1,4.12
CC(=O)N1CCC(c2ccc(C(=O)NC3=NCCN3)cc2C(F)(F)F)CC1,37.8
CNC(=O)Nc1ccc2c(c1)CC[C@]21OC(=O)N(CC(=O)N(Cc2ccc(F)cc2)[C@@H](C)C(F)(F)F)C1=O,9.82
CS(=O)(=O)NCC[C@H](NC(=O)c1cncc2c1cnn2-c1ccc(F)cc1)c1ccnc(S(C)(=O)=O)c1,47.7
COCCOc1nc(-c2ccc(Cl)nc2)nc2c1CN(C(=O)c1ncn3ccccc13)CC2,23.3
COc1ccc2c(O[C@@H]3C[C@H]4C(=O)N[C@]5(C(=O)O)CC5/C=C\CCCCC[C@H](NC(=O)OC5CCCC5)C(=O)N4C3)cc(-c3csc(NC(=O)C(C)C)n3)nc2c1C (stereo partly drawn),7.71
Cn1cncc1[C@@](O)(COc1ccc(C#N)cc1-c1ccc(OC(F)(F)F)cc1)c1ccc(C#N)cc1,3.34
Nc1cnc(N2CCc3cc(S(=O)(=O)Nc4c(F)cc(Cl)cc4F)cc(N4CCCC4=O)c32)nc1,-3.82
Cc1cc(-n2nc(Cc3cc(F)cc(C(F)(F)F)c3)nc2C)ccc1C(N)=O,13.8
C[C@H](c1cccc(C#N)c1)n1cc(Cl)cc(C(N)=O)c1=N,-4.95
CCC(=O)N[C@H]1CC[C@@H](C(=O)N(C)c2ccc(-c3nc4ccccc4o3)cc2)C1,25.7
